Measured values pooled from the literature.
Every numbered part comes from another study and shows a few of its results, in no order.

Block 1 — method: RNA Bind-n-Seq; molecule type: RNA; medium: in vitro; concentration: 365 nM; reference: no-protein control; direction: higher = stronger binding
Target: RNA binding protein fox-1 homolog 2, RRM domain, GST-SBP tag (RBFOX2, Homo sapiens, UniProt O43251-10, residues 100-194)
Notes: natural RNA segment, single round, ends assumed
Residues (chain): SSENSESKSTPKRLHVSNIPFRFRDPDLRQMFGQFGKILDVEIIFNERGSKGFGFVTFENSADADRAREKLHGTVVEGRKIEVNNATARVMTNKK
For `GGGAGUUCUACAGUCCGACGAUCCAAAGGUGUGCUCUGAGCUUCUUCAUAUUUCACCUUCACCCUCACCUGUGUUCUCUUCCCUCUCUCCCAAUAAAAGGGCUCCCAUUAUAAAUGCCAUGUACUUCUCUUGGUGGAAUUCUCGGGUGCCAA`, “RBNS enrichment (R)” read 0.873.
For `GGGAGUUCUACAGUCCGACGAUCCUGAAAUUUUGAAAAGUUUUGAAAAAAGACUGCUAGACUUAGAGAGAGAAGCCAGAACAAAUUCCGCUGGUUAUAUUUUCUACCUUGUAAACAGGUCAGCACCCCCACUAUGGAAUUCUCGGGUGCCAA`, “RBNS enrichment (R)” read 0.694.
`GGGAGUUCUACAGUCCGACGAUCCCUAUCUCAGCGGAAUUCUAAAUCUCAGUUCUGGCUUAAAAGUUUUAAAAAUAAGAUAUAUAUACAUAUAUAUAUCCAAUACAAUGAACUUUGAAGAUUUCUCAGAAAACUGGAAUUCUCGGGUGCCAA` — result for “RBNS enrichment (R)”: 0.463.
For `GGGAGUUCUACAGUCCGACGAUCAUGGAAAUUGGAGCCAUCUUUUAUCCCAGAAGCCUUUGCUGCUGCCAGGGCAAGUGGGCUGGUGUGGACUCUUGUUUAGGAGGCUGAGGUUCUUGUCACUCCUUAGCCAGUGGAAUUCUCGGGUGCCAA`, “RBNS enrichment (R)” read 0.283.
Under “RBNS enrichment (R)”, `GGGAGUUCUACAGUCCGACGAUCGCGCUUGGUGGUUUUAAAGUGCAUGCUAUUUUAUUAUCUUCUUCUGAAUAAAAUGUAUUUACUCAAAGUCUCUGCUGACAAACUCUCUUCCUUCUGGACUUCUAGCAGAAUGGAAUUCUCGGGUGCCAA` is recorded as 1.83.
Under “RBNS enrichment (R)”, `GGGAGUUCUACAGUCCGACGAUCCUAAUGGCUUUGACUAAAUUACCCCCAUCCUCCUUGCCCGGAAAAGGGAGAGCUAGAGCCACUCACUGUCAUUCUGCUCUGACCUUGAAGGGGGCGGUGUUGGCCUGGCUUGGAAUUCUCGGGUGCCAA` is recorded as 0.315.
`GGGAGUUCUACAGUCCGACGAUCUGCUGUUUUGUAAAAAGAAAAAGAAAAAAGAAGCCCAAACUAGUGAGAGUAAUAUCUAAUUAUCUCAUUUUUUGUAGGUCUGUGAUAAAGAACUUAGUCAUCCCUUCCACUGGAAUUCUCGGGUGCCAA`: “RBNS enrichment (R)” 0.532.
For `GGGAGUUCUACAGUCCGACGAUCGCUGUUCUUCCCAGUCGGUAGGGGAGUGACCCUCUAGGACAGGAAGCUGGGCUGGCCCAGGCCAGUGCCACCUUUGUCCUCUCUUAACUCCAAGAAGUGCAAGUGAACUUUGGAAUUCUCGGGUGCCAA`, “RBNS enrichment (R)” read 0.331.

Block 2 — method: competition protein-binding microarray; molecule type: double-stranded DNA, one strand shown; medium: in vitro; concentration: 2 µM; together with: Pho4 competitor, 0.05 µM; direction: higher = stronger binding
Target: Centromere-binding protein 1, full length, His-tagged (CBF1, Saccharomyces cerevisiae, UniProt P17106, residues 1-351)
Chain of UniProt P17106 (whole entry, looked up): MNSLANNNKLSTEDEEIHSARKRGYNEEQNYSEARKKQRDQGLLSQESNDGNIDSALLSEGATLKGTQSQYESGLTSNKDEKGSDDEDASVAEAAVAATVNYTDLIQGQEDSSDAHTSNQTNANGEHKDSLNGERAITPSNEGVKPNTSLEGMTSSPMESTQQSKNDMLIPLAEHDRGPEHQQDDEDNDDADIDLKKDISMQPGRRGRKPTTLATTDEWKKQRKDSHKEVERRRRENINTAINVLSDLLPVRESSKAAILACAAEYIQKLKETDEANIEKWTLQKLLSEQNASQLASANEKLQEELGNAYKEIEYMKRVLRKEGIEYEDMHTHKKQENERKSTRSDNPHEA
Notes: whole 60-bp probe, lowest competitor level
With `AAAGGCTCAGATCTGCATGTGTTGTATAACACTGGCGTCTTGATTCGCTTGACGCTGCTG` the fluorescence intensity was 82.2 a.u.
With `CCTAGGACTTTGAAGGGCGTGCTAAGTGGGGAGCCGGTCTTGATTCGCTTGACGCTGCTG` the fluorescence intensity was 62.7 a.u.
`ATATCTCGCACTTCTCTCGTGATGGTCATTGAGTGCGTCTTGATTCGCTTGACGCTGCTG` has a fluorescence intensity of 187 a.u.
The fluorescence intensity of `GTCAATCGATTGGATCAGGTGAGGAAGTACTCAGCGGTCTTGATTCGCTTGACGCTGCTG` is reported as 323 a.u.
`GAATATGAATGTTCCCTTAATCAGCCGGGATAATCTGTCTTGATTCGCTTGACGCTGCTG` has a fluorescence intensity of 74.3 a.u.
With `CTTTTTGGAAACGGCCACGTCTTTTGACAGATTTAGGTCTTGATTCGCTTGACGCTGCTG` the fluorescence intensity was 62.4 a.u.
`GTTTCTGTCGCAAAGCACGTTATGGCCACAATTTTGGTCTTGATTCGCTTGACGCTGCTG` has a fluorescence intensity of 121 a.u.
With `CAATAGCCGGGCTGGCACGCTACTAGAAGGCGGTTCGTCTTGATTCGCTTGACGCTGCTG` the fluorescence intensity was 65.4 a.u.
With `CTAACGAAGGTTTGACATGTGGGTGACAAGCCAAGTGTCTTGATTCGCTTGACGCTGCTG` the fluorescence intensity was 102 a.u.
`CGGGGTTAAGTTTTTCACGTGACATGCTTGCAGCAGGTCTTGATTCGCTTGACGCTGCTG` has a fluorescence intensity of 5790 a.u.
`AACAATAACTGCCAAAACGTGGTGAACGGACGCTGAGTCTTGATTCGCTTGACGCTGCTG` gave a fluorescence intensity of 88.4 a.u.
For `CCGCAACTCCGCGATCGCGCGCCAAGGGCCGTCGGCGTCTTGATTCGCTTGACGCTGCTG`, the fluorescence intensity was 46.4 a.u.
The fluorescence intensity of `AATGAGTTCACTCACCACGTTAGAGTCTCCCAATATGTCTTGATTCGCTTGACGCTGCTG` is reported as 84.7 a.u.
The fluorescence intensity of `GAGCTCTTTGGCGGCAACGTGATGGGCGAGTTGGTTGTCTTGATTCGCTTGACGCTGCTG` is reported as 253 a.u.
For `TCCGAATACTGTATTAACAACGTAGAAGAACTGATGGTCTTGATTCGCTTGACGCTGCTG`, the fluorescence intensity was 76.8 a.u.
`CGGGGTTAAGTTTGAAAGGTGGGTGGCTTGCAGCAGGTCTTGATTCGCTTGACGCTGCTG` gave a fluorescence intensity of 54.2 a.u.
For `CGCGCTGCTCTAAGCACCGTGGGTAGGCCATGAAATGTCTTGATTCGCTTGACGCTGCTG`, the fluorescence intensity was 64.3 a.u.
`CCAGAACGCCCAGAAAACGTGAAGGACACTACATACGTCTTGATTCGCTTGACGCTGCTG` has a fluorescence intensity of 114 a.u.
`TTTGGGGTACGGAACAACGTGATTGGGAAGCTGCTCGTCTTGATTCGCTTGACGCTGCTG` has a fluorescence intensity of 449 a.u.

Block 3 — method: protein-binding microarray; molecule type: double-stranded DNA, one strand shown; medium: in vitro; concentration: 2200 nM top; notes: 60-bp whole probe; together with: salmon DNA 0.4 mg/ml; reference: random background probes; direction: higher = stronger binding; shared flanks, not repeated: GCCTAGCAC … GTCTTGATTCGCTTGACGCTGCTG
Target: Interferon regulatory factor 7, full length, phosphomimetic (IRF7, Homo sapiens, UniProt Q92985, residues 1-503, S471D/S472D/S475D/S476D/S477D/S483D/S484D/S487D)
Chain of UniProt Q92985 (whole entry, unmodified, looked up): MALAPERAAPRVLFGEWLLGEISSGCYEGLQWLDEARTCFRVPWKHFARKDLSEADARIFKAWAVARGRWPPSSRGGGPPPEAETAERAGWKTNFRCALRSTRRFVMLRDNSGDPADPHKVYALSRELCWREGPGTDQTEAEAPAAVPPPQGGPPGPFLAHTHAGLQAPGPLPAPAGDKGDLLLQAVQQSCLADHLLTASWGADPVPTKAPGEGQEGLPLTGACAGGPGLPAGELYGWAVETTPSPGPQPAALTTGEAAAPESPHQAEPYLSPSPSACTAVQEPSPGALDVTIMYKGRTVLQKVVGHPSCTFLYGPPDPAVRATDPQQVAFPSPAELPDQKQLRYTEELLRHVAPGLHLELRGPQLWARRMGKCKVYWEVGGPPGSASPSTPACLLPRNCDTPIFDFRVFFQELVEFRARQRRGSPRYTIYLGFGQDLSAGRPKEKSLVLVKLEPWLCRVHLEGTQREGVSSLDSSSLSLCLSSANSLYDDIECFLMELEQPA
`TAAGGTTTCGGTATCGGTTAGTGCTAG` — result for “fitted relative affinity”: 7 z-score.
Under “fitted relative affinity”, `CACGGTTTCGGTCTCGGGACGTGCTAG` is recorded as 6.72 z-score.
`CGAGACCTCGTCTCTATCAAAGTGCTA`: “fitted relative affinity” -0.184 z-score.
`TTAGGACTGGACTTTCGGTCAGTGCTA`: “fitted relative affinity” 1.48 z-score.
`GACGATATCAGTTTCGAGATGTGCTAG`: “fitted relative affinity” 4.2 z-score.
`TTAGGTCTCGGTCTCGGATAGTGCTAG` — result for “fitted relative affinity”: 0.286 z-score.
`GACGATTTCAGTATAGAGACGTGCTAG`: “fitted relative affinity” 0.612 z-score.
`TTCCCTTTTAAGTTCTCTGAGTGCTAG` — result for “fitted relative affinity”: 3.62 z-score.
`TTTGGACTGCTACTGCTTTAGTGCTAG`: “fitted relative affinity” 0.262 z-score.
For `TCAGCTTTCCTTTGCTTACTGTGCTAG`, “fitted relative affinity” read 2.7 z-score.
For `TTAGGCATCGGTATCGGTTAGTGCTAG`, “fitted relative affinity” read 0.197 z-score.
For `ATATTGATGGCTCTCTGGACGTGCTAG`, “fitted relative affinity” read 0.0738 z-score.
Under “fitted relative affinity”, `CACTCTGTCCCTCTGTGACAGTGCTAG` is recorded as 1.43 z-score.
Under “fitted relative affinity”, `TTAGGTTTCGGGCATCGGTTAGTGCTA` is recorded as 2.41 z-score.
`TTAGGAATCGACACTGGGTTAGTGCTA` — result for “fitted relative affinity”: -0.47 z-score.
For `GATGATTTCAGTTCCGAGACGTGCTAG`, “fitted relative affinity” read 1.9 z-score.
`GACGGACTGGACTATCGGGAGGTGCTA`: “fitted relative affinity” -0.985 z-score.
Under “fitted relative affinity”, `GACGGTATCGATATCGGGACGTGCTAG` is recorded as 0.645 z-score.
For `TTATGACTGGGGTATCGGTTAGTGCTA`, “fitted relative affinity” read 0.19 z-score.

Block 4 — method: protein binding microarray; molecule type: double-stranded DNA, one strand shown; medium: in vitro; concentration: not given; reference: not given; direction: higher = stronger binding
Target: Histone acetyltransferase KAT6A, both winged helices, GST fusion (KAT6A, Homo sapiens, UniProt Q92794, residues 1-181)
Notes: 8-mer, flanks averaged, mean of 2 arrays, mostly near background
Residues (chain): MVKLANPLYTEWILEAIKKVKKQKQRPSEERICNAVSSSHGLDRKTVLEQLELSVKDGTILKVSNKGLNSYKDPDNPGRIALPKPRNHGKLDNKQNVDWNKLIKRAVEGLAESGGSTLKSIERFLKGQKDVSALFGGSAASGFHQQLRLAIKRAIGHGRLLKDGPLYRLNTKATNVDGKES
With `CTCTGGTC` the E-score was -0.00194.
For `CACGCACA`, the E-score was 0.158.
`ACGATTTA` has an E-score of -0.00963.
The E-score of `GCCGCGGA` is reported as 0.379.
With `AATTTACA` the E-score was -0.177.
`TACCCCTA` gave an E-score of -0.252.
`AGGAGGTC` has an E-score of -0.18.
`AAGATGAA` has an E-score of -0.161.
The E-score of `ATACATAG` is reported as 0.00766.
With `TCCCCCCA` the E-score was -0.342.
With `CGCTCGTC` the E-score was 0.17.
`CCCAACCC` has an E-score of -0.144.
With `GGTGACAA` the E-score was 0.0511.
With `AGGCTTCG` the E-score was -0.0478.
For `ATCTCCTG`, the E-score was -0.201.
With `ACCCAACA` the E-score was -0.159.
`CCTATGGC` gave an E-score of -0.00995.
The E-score of `GCGCTAGC` is reported as 0.19.
The E-score of `CGATCCCC` is reported as -0.0734.
With `AGGCCGTC` the E-score was 0.198.
With `ATGTAACA` the E-score was 0.00788.
For `CTACTCAC`, the E-score was -0.134.
The E-score of `CAGTTCTA` is reported as -0.0256.
`ATAACATA` gave an E-score of -0.022.
`GATTCTGC` gave an E-score of -0.0119.

Excerpt of the above (block 2):
With `AAAGGCTCAGATCTGCATGTGTTGTATAACACTGGCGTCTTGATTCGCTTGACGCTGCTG` the fluorescence intensity was 82.2 a.u.
For `CGCGCTGCTCTAAGCACCGTGGGTAGGCCATGAAATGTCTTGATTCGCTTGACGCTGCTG`, the fluorescence intensity was 64.3 a.u.
The fluorescence intensity of `AATGAGTTCACTCACCACGTTAGAGTCTCCCAATATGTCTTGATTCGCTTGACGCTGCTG` is reported as 84.7 a.u.
The fluorescence intensity of `GAGCTCTTTGGCGGCAACGTGATGGGCGAGTTGGTTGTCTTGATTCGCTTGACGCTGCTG` is reported as 253 a.u.
With `CCTAGGACTTTGAAGGGCGTGCTAAGTGGGGAGCCGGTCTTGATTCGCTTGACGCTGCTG` the fluorescence intensity was 62.7 a.u.
With `CTAACGAAGGTTTGACATGTGGGTGACAAGCCAAGTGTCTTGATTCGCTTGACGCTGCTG` the fluorescence intensity was 102 a.u.
For `CCGCAACTCCGCGATCGCGCGCCAAGGGCCGTCGGCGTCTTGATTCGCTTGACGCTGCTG`, the fluorescence intensity was 46.4 a.u.
`CGGGGTTAAGTTTTTCACGTGACATGCTTGCAGCAGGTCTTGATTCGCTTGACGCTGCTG` has a fluorescence intensity of 5790 a.u.
The fluorescence intensity of `GTCAATCGATTGGATCAGGTGAGGAAGTACTCAGCGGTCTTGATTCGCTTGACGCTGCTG` is reported as 323 a.u.
`CCAGAACGCCCAGAAAACGTGAAGGACACTACATACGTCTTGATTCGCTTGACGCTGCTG` has a fluorescence intensity of 114 a.u.
